Results from different studies.
Compare with care: the assays were run in different laboratories. “And” joins repeats or separate records; there may be more than shown. Numbers after ± are the reported error.
Cell line: A549

Compound | read-out | technique | tested at | time | reference | endpoint | value
CCCc1cc2cc(-n3nc(C)c4c3CC3(CCC3)CC4=O)cc(N3CCC(O)CC3)c2c(=O)[nH]1 | cell growth or viability | MTS | – | – | – | IC50 | 13.1 µM
O=C1C=CC(=O)c2c(O)ccc(O)c21 | cell growth or viability | MTT | – | – | – | IC50 | 1.42 µM
Cc1cc(=O)oc2cc(OCCCCCC[Se]C#N)ccc12 | cell growth or viability | SRB | – | – | – | GI50 | 4.3 µM
C[C@H]1O[C@@H](O[C@H]2CC[C@@]3(C)[C@H](CC[C@@H]4[C@@H]3C[C@@H](O)[C@]3(C)[C@@H](C5=CC(=O)OC5)[C@@H](O)C[C@]43O)C2)C[C@H](O)[C@@H]1O | cell growth or viability | MTT | 5 µM | 24 h | – | inhibition | 73.1%
O=C1C=CC(=O)c2ccccc21 | – | MTT | – | – | IC50 MRC-5 over IC50 A549 | selectivity index | 0.69
C[C@H]1O[C@@H](O[C@H]2[C@@H](O)C[C@H](O[C@H]3[C@@H](O)C[C@H](O[C@H]4CC[C@@]5(C)[C@H](CC[C@@H]6[C@@H]5C[C@@H](O)[C@]5(C)[C@@H](C7=CC(=O)OC7)[C@@H](O)C[C@]65O)C4)O[C@@H]3C)O[C@@H]2C)C[C@H](O)[C@@H]1O | cell growth or viability | MTT | 5 µM | 24 h | – | inhibition | 70.6%
CCC1CC(c2ccc(C(=O)O)cc2C)=NN1c1ccc(C#N)c(Cl)c1 (stereo not drawn) | cell growth or viability | – | – | 48 h | – | EC50 | > 50 µM
O=c1n(CCNCCOS(=O)(=O)c2ccccc2)c(=O)n(S(=O)(=O)c2ccccc2)c(=O)n1S(=O)(=O)c1ccccc1 | cell growth or viability | MTT | 12.5 µg/mL | 24 h | – | viability | 62.1%
CC(C)(C)C(=O)OCOP(=O)(OCOC(=O)C(C)(C)C)C1CCCN(O)C1=O (stereo not drawn) | – | – | – | – | – | Log10TGI | > -4 log M
CC(C)C12OC1C1OC13C1(C)CCC4=C(COC4=O)C1CC1OC13C2OC(=O)CCC(=O)OC1OC(CO)C(O)C(O)C1O (stereo not drawn) | cell growth or viability | XTT | – | 47 h | – | IC50 | 1.7 µM
CC(C)[C@H](NC(=O)[C@H](CCCNC(=N)N)NC(=O)[C@@H]1CCCN1C(=O)[C@@H](NC(=O)[C@H](C)NC(=O)[C@H](Cc1ccc(O)cc1)NC(=O)[C@H](CCC(N)=O)NC(=O)[C@H](CCCCN)NC(=O)[C@H](CCCNC(=N)N)NC(=O)[C@@H]1CCCN1C(=O)[C@H](CCC(=O)O)NC(=O)[C@@H](NC(=O)[C@H](C)N)[C@@H](C)O)[C@@H](C)O)C(=O)N[C@@H](Cc1ccccc1)C(=O)N[C@@H](Cc1c[nH]c2ccccc12)C(=O)N[C@H](C(=O)N[C@@H](CC(=O)O)C(=O)N[C@@H](C)C(=O)N1CCC[C@H]1C(=O)NCC(=O)NCCOCCOCCOCCOCCOCCOCCOCCOCCOCCOCCOCCOCCC(=O)N[C@@H](CS)C(N)=O)[C@@H](C)O | phage binding | phage binding | – | – | targeting over control phage | selectivity ratio | 1.1 ± 0.32
COC(=O)[C@H](C(C)C)N(C)C(=O)[C@H](C(C)C)N(C)C(=O)[C@@H]1CCCN1C(=O)[C@H](C)N(C)C(=O)OC(C)(C)C | cell growth or viability | SRB | – | – | – | IC50 | 2.94 µM and 3.61 µM and 3.12 µM
